Published values gathered from unrelated publications.
A part holds a random share of what one study measured. Substitutions count along the parent as printed.

Sample 1 — method: protein-binding microarray; molecule type: hairpin DNA; sample: in vitro; tested at: not given; relative to: not given; reading: higher = stronger binding
Target: FOXO3, forkhead domain (mouse, UniProt Q9WVH4, residues 31-263)
Sequence of UniProt Q9WVH4 (31-263, looked up): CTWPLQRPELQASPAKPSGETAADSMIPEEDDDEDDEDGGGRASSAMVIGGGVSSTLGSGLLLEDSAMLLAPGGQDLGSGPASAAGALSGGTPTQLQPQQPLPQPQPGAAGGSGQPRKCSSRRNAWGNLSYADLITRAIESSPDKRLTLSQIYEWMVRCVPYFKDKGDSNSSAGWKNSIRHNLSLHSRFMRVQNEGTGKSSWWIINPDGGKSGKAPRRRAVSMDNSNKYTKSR
Setting: whole hairpin DNA, median over replicate spots
`GAGGCCATGCCAACAACGCCTCCTGGCGTTGTTGGCATGGCCTCACACTC` gave a median fluorescence of 4690 a.u.
`GAGGCCATGTAACCGACGCCTCCTGGCGTCGGTTACATGGCCTCACACTC (5mC at 14)` has a median fluorescence of 4210 a.u.
With `GAGGCCATGCAAACCGCGCCTCCTGGCGCGGTTTGCATGGCCTCACACTC (5mC at 15)` the median fluorescence was 4780 a.u.
The median fluorescence of `GAGGCCACGCAAACAACGCCTCCTGGCGTTGTTTGCGTGGCCTCACACTC (5mC at 36)` is reported as 5360 a.u.
For `GAGGCCATGTAACCATCGCCTCCTGGCGATGGTTACATGGCCTCACACTC`, the median fluorescence was 3910 a.u.
The median fluorescence of `GAGGCCATGCAAACATCGCCTCCTGGCGATGTTTGCATGGCCTCACACTC` is reported as 4750 a.u.
For `GAGGCCGTGCAAACAACGCCTCCTGGCGTTGTTTGCACGGCCTCACACTC (5mC at 38)`, the median fluorescence was 5210 a.u.
`GAGGCCCGGTAACCAACGCCTCCTGGCGTTGGTTACCGGGCCTCACACTC (5mC at 7)` has a median fluorescence of 4560 a.u.

Sample 2 — method: RNA Bind-n-Seq; molecule type: RNA; sample: in vitro; tested at: 20 nM; setting: 6-mer, flanks averaged, single round; with: 150 mM LiCl; relative to: input library; reading: higher = stronger binding
Target: TAR DNA-binding protein 43, full length, His tag (TARDBP, Homo sapiens, UniProt Q13148, residues 1-414)
`AACUGC`: “6-mer enrichment (R)” 0.842.
For `GUCCGA`, “6-mer enrichment (R)” read 0.892.
`UUGCUA`: “6-mer enrichment (R)” 0.973.
For `CUCUUA`, “6-mer enrichment (R)” read 0.909.
Under “6-mer enrichment (R)”, `UUAUUU` is recorded as 1.35.
`CUCUGC`: “6-mer enrichment (R)” 0.878.
Under “6-mer enrichment (R)”, `ACUUCU` is recorded as 0.863.
Under “6-mer enrichment (R)”, `AUAUCG` is recorded as 0.856.

Other studies, line by line
P1: viral docking peptide; PGASRRLFGSSAD; partner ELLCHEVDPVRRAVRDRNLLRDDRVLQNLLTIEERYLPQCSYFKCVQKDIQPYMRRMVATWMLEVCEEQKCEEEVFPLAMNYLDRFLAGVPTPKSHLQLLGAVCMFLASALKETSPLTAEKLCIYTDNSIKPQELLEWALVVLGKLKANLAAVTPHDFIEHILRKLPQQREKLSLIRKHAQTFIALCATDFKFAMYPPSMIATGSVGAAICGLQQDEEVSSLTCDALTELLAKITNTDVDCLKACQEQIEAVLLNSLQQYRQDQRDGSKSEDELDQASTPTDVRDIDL
`BCAP31 (Homo sapiens, UniProt P51572)`: interaction screen “cross-linked” (BCAP29 (Homo sapiens, UniProt Q9UHQ4); cross-linking MS; hits only).
For `P1 R5K`, “normalised enrichment score” read -0.0679 (CCND2, cyclin fold, Cln2 fusion (human); yeast growth competition, sequencing; yeast; weak parent motif; relative to: not given, higher = stronger binding).
For `EPB41 (Homo sapiens, UniProt P11171)`, cross-linked residues read “K639 to S317” (CCT8 (Homo sapiens, UniProt P50990); cross-linking MS; cell fractions; with: DSSO).
`GPD2 (Homo sapiens, UniProt P43304)`: cross-linked residues “E426 to K102” (IMMT (Homo sapiens, UniProt Q16891); cross-linking MS; cell fractions; with: DMTMM).
Under cross-linked residues, `UTP25 (Homo sapiens, UniProt Q68CQ4)` is recorded as “K301 to K209” (UTP3 (Homo sapiens, UniProt Q9NQZ2); cross-linking MS; cell fractions; with: DSSO).

Excerpt of the above (sample 2):
`AACUGC`: “6-mer enrichment (R)” 0.842.
For `GUCCGA`, “6-mer enrichment (R)” read 0.892.
For `CUCUUA`, “6-mer enrichment (R)” read 0.909.
